Published values pooled from the literature.
Several values in a cell are separate wells, animals, samples, runs or records. pKd: −log10 of the molar value.
U2AF2: U2AF2 148-342 (Homo sapiens, UniProt P26368)
Sequence of UniProt P26368 (whole entry, looked up): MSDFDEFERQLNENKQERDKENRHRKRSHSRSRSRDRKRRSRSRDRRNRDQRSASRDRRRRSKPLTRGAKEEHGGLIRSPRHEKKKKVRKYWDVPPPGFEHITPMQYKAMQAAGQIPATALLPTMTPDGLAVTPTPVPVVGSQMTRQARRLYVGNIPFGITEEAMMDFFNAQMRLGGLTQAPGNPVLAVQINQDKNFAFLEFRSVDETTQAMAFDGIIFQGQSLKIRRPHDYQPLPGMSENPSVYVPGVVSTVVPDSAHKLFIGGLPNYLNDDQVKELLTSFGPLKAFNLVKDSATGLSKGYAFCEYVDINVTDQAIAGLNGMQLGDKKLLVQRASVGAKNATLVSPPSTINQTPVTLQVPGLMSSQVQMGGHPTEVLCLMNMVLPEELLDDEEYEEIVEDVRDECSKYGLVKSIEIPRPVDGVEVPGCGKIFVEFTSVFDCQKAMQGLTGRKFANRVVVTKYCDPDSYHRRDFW
B1: STK38 (human); sequence looked up; chain AMTGSTPCSSMSNHTKERVTMTKVTLENFYSNLIAQHEEREMRQKKLEKVMEEEGLKDEEKRLRRSAHARKETEFLRLKRTRLGLEDFESLKVIGRGAFGEVRLVQKKDTGHVYAMKILRKADMLEKEQVGHIRAERDILVEADSLWVVKMFYSFQDKLNLYLIMEFLPGGDMMTLLMKKDTLTEEETQFYIAETVLAIDSIHQLGFIHRDIKPDNLLLDSKGHVKLSDFGLCTGLKKAHRTEFYRNLNHSLPSDFTFQNMNSKRKAETWKRNRRQLAFSTVGTPDYIAPEVFMQTGYNKLCDWWSLGVIMYEMLIGYPPFCSETPQETYKKVMNWKETLTFPPEVPISEKAKDLILRFCCEWEHRIGAPGVEEIKSNSFFEGVDWEHIRERPAAISIEIKSIDDTSNFDEFPESDILKPTVATSNHPETDYKNKDWVFINYTYKRFEGLTARGAIPSYMKAAK
B2: human ILK; sequence looked up; chain MDDIFTQCREGNAVAVRLWLDNTENDLNQGDDHGFSPLHWACREGRSAVVEMLIMRGARINVMNRGDDTPLHLAASHGHRDIVQKLLQYKADINAVNEHGNVPLHYACFWGQDQVAEDLVANGALVSICNKYGEMPVDKAKAPLRELLRERAEKMGQNLNRIPYKDTFWKGTTRTRPRNGTLNKHSGIDFKQLNFLTKLNENHSGELWKGRWQGNDIVVKVLKVRDWSTRKSRDFNEECPRLRIFSHPNVLPVLGACQSPPAPHPTLITHWMPYGSLYNVLHEGTNFVVDQSQAVKFALDMARGMAFLHTLEPLIPRHALNSRSVMIDEDMTARISMADVKFSFQCPGRMYAPAWVAPEALQKKPEDTNRRSADMWSFAVLLWELVTREVPFADLSNMEIGMKVALEGLRPTIPPGISPHVCKLMKICMNEDPAKRPKFDMIVPILEKMQDK
B3: PP6 regulatory subunit 1 (human); sequence looked up; chain MFWKFDLHTSSHLDTLLEREDLSLPELLDEEDVLQECKVVNRKLLDFLLQPPHLQAMVAWVTQEPPDSGEERLRYKYPSVACEILTSDVPQINDALGADESLLNRLYGFLQSTGSLNPLLASFFSKVMGILINRKTDQLVSFLRKKDDFVDLLLQHIGTSAIMDLLLRLLTCVERPQLRQDVVNWLNEEKIVQRLIEQIHPSKDENQHSNASQSLCDIIRLSREQMIQVQDSPEPDQLLATLEKQETIEQLLSNMFEGEQSQSVIVSGIQVLLTLLEPRRPRSESVTVNSFFSSVDGQLELLAQGALESTVSSVGALHALRPRLSCFHQLLLEPPKLEPLQMTWGMLAPPLGNTRLHVVKLLASALSANDAALTHELLALDVPNTMLDLFFHYVFNNFLHAQVEGCVSTMLSLGPPPDSSPETPIQNPVVKHLLQQCRLVERILTSWEENDRVQCAGGPRKGYMGHLTRVAGALVQNTEKGPNAEQLRQLLKELPSEQQEQWEAFVSGPLAETNKKNMVDLVNTHHLHSSSDDEDDRLKEFNFPEEAVLQQAFMDFQMQRMTSAFIDHFGFNDEEFGEQEESVNAPFDKTANITFSLNADDENPNANLLEICYKDRIQQFDDDEEEEDEEEAQGSGESDGEDGAWQGSQLARGARLGQPPGVRSGGSTDSEDEEEEDEEEEEDEEGIGCAARGGATPLSYPSPGPQPPGPSWTATFDPVPTDAPTSPRVSGEEELHTGPPAPQGPLSVPQGLPTQSLASPPARDALQLRSQDPTPPSAPQEATEGSKVTEPSAPCQALVSIGDLQATFHGIRSAPSSSDSATRDPSTSVPASGAHQPPQTTEGEKSPEPLGLPQSQSAQALTPPPIPNGSAPEGPASPGSQ
B4: human septin-7; sequence looked up; chain SVSARSAAAEERSVNSSTMVAQQKNLEGYVGFANLPNQVYRKSVKRGFEFTLMVVGESGLGKSTLINSLFLTDLYSPEYPGPSHRIKKTVQVEQSKVLIKEGGVQLLLTIVDTPGFGDAVDNSNCWQPVIDYIDSKFEDYLNAESRVNRRQMPDNRVQCCLYFIAPSGHGLKPLDIEFMKRLHEKVNIIPLIAKADTLTPEECQQFKKQIMKEIQEHKIKIYEFPETDDEEENKLVKKIKDRLPLAVVGSNTIIEVNGKRVRGRQYPWGVAEVENGEHCDFTILRNMLIRTHMQDLKDVTNNVHYENYRSRKLAAVTYNGVDNNKNKGQLTKSPLAQMEEERREHVAKMKKMEMEMEQVFEMKVKEKVQKLKDSEAELQRRHEQMKKNLEAQHKELEEKRRQFEDEKANWEAQQRILEQQNSSRTLEKNKKKGKIF
B5: human histidine ammonia-lyase; sequence looked up; chain MPRYTVHVRGEWLAVPCQDAQLTVGWLGREAVRRYIKNKPDNGGFTSVDDAHFLVRRCKGLGLLDNEDRLEVALENNEFVEVVIEGDAMSPDFIPSQPEGVYLYSKYREPEKYIELDGDRLTTEDLVNLGKGRYKIKLTPTAEKRVQKSREVIDSIIKEKTVVYGITTGFGKFARTVIPINKLQELQVNLVRSHSSGVGKPLSPERCRMLLALRINVLAKGYSGISLETLKQVIEMFNASCLPYVPEKGTVGASGDLAPLSHLALGLVGEGKMWSPKSGWADAKYVLEAHGLKPVILKPKEGLALINGTQMITSLGCEAVERASAIARQADIVAALTLEVLKGTTKAFDTDIHALRPHRGQIEVAFRFRSLLDSDHHPSEIAESHRFCDRVQDAYTLRCCPQVHGVVNDTIAFVKNIITTELNSATDNPMVFANRGETVSGGNFHGEYPAKALDYLAIGIHELAAISERRIERLCNPSLSELPAFLVAEGGLNSGFMIAHCTAAALVSENKALCHPSSVDSLSTSAATEDHVSMGGWAARKALRVIEHVEQVLAIELLAACQGIEFLRPLKTTTPLEKVYDLVRSVVRPWIKDRFMAPDIEAAHRLLLEQKVWEVAAPYIEKYRMEHIPESRPLSPTAFSLQFLHKKSTKIPESEDL
B6: human DDX17; sequence looked up; chain MPTGFVAPILCVLLPSPTREAATVASATGDSASERESAAPAAAPTAEAPPPSVVTRPEPQALPSPAIRAPLPDLYPFGTMRGGGFGDRDRDRDRGGFGARGGGGLPPKKFGNPGERLRKKKWDLSELPKFEKNFYVEHPEVARLTPYEVDELRRKKEITVRGGDVCPKPVFAFHHANFPQYVMDVLMDQHFTEPTPIQCQGFPLALSGRDMVGIAQTGSGKTLAYLLPAIVHINHQPYLERGDGPICLVLAPTRELAQQVQQVADDYGKCSRLKSTCIYGGAPKGPQIRDLERGVEICIATPGRLIDFLESGKTNLRRCTYLVLDEADRMLDMGFEPQIRKIVDQIRPDRQTLMWSATWPKEVRQLAEDFLRDYTQINVGNLELSANHNILQIVDVCMESEKDHKLIQLMEEIMAEKENKTIIFVETKRRCDDLTRRMRRDGWPAMCIHGDKSQPERDWVLNEFRSGKAPILIATDVASRGLDVEDVKFVINYDYPNSSEDYVHRIGRTARSTNKGTAYTFFTPGNLKQARELIKVLEEANQAINPKLMQLVDHRGGGGGGGGRSRYRTTSSANNPNLMYQDECDRRLRGVKDGGRRDSASYRDRSETDRAGYANGSGYGSPNSAFGAQAGQYTYGQGTYGAAAYGTSSYTAQEYGAGTYGASSTTSTGRSSQSSSQQFSGIGRSGQQPQPLMSQQFAQPPGATNMIGYMGQTAYQYPPPPPPPPPSRK

Molecule = B1 (STK38); target or system = PP6C (human); assay = co-immunoprecipitation, IP-MS; system = CYB5R4 knockout cells; conditions = concentration not given; scale = baseline: CYB5R4 knockout over parental; quantity = log2 fold change; value = -0.17
Molecule = VVVGACGVGK; target or system = HLA-A*11:01 peptide-β2M single-chain trimer; assay = western blot, refers to: pMHC-I; system = peptide, 293T cells; conditions = 60 h, unit not given, together with: 100 µg/mL cycloheximide; scale = baseline: time zero; quantity = remaining protein; value = 0.671 and 0.655 and 0.663
Molecule = PKRSFIESNV; target or system = construct, MBP fusion, human SCRIB, PDZ 3-4; assay = automated holdup; system = peptide, crude extract; conditions = concentration not given, corrected by standard peak, unit not given; scale = baseline: biotin control resin, higher = stronger binding; quantity = binding intensity; value = 0.596
Molecule = B2 (human ILK); target or system = PP6C (human); assay = co-immunoprecipitation, IP-MS; system = CYB5R4 knockout cells; conditions = concentration not given; scale = baseline: CYB5R4 knockout over parental; quantity = log2 fold change; value = -1.6
Molecule = UAUGAGUGC (ssRNA); target or system = U2AF2; assay = sequencing of bound RNA; system = RNA; conditions = motif only; quantity = pKd; value = 5.46
Molecule = B3 (PP6 regulatory subunit 1); target or system = PP6C (human); assay = co-immunoprecipitation, IP-MS; system = CYB5R4 knockout cells; conditions = concentration not given; scale = baseline: CYB5R4 knockout over parental; quantity = log2 fold change; value = -2.84
Molecule = GSGAGSETSV; target or system = construct, MBP fusion, human SCRIB, PDZ 3-4; assay = surface plasmon resonance; system = peptide; conditions = concentration not given; scale = higher = stronger binding; quantity = normalised SPR binding response; value = 53.2 normalised RU
Molecule = B4 (human septin-7); target or system = PP6C (human); assay = co-immunoprecipitation, IP-MS; system = CYB5R4 knockout cells; conditions = concentration not given; scale = baseline: CYB5R4 knockout over parental; quantity = log2 fold change; value = -1.25
Molecule = Relaxin; target or system = RXFP1 signalosome; assay = co-immunoprecipitation, refers to: PDE4D3, PKA, β-arrestin-2; system = HEK293; conditions = 10 nM, 5 min; quantity = decrease in association; value = 50%
Molecule = QGRWDHETIV; target or system = construct, MBP fusion, human SCRIB, PDZ 3-4; assay = automated holdup; system = peptide, crude extract; conditions = concentration not given, uncorrected, unit not given; scale = baseline: biotin control resin, higher = stronger binding; quantity = binding intensity; value = 0.143
Molecule = B5 (human histidine ammonia-lyase); target or system = PP6C (human); assay = co-immunoprecipitation, IP-MS; system = CYB5R4 knockout cells; conditions = concentration not given; scale = baseline: CYB5R4 knockout over parental; quantity = log2 fold change; value = 1.23
Molecule = GEMVGQARILAQATSDLVNAIKDA; target or system = vinculin head domain Vd1; assay = complex rupture, AFM single-molecule force spectroscopy; system = peptide; conditions = multiple traces, C-terminal pulling, 800 nm/s; quantity = rupture force FWHM lower side; value = 17 pN
Molecule = Nonidet P-40; target or system = HBV core protein Cp149 dimer; assay = solution NMR; conditions = 4 molar equivalents, pH 7.5, 295 K, average over eight residues; scale = baseline: apo Cp149 dimer; quantity = average chemical shift perturbation; value = 0.021 ppm
Molecule = Peginesatide; target or system = ERK2 (MAPK1) human; assay = LC-MS/MS phosphoproteomics, refers to: ERK2 phosphotyrosine site 186; system = UT7/EPO; conditions = 10 nM, 15 min, together with: EPO 10 U/mL; scale = baseline: vehicle; quantity = phosphorylation fold change; value = 46.2 fold
Molecule = B6 (human DDX17); target or system = PP6C (human); assay = co-immunoprecipitation, IP-MS; system = CYB5R4 knockout cells; conditions = concentration not given; scale = baseline: CYB5R4 knockout over parental; quantity = log2 fold change; value = -0.23
Molecule = transthyretin; target or system = hnRNPA2B1 human; assay = pull-down LC-MS/MS; scale = baseline: blank; quantity = enrichment fold; value = 101
Molecule = AUUUUUUUU (ssRNA); target or system = U2AF2; assay = sequencing of bound RNA; system = RNA; conditions = motif only; quantity = pKd; value = 6.28
Molecule = GSGAGSETKM; target or system = construct, MBP fusion, human SCRIB, PDZ 3-4; assay = surface plasmon resonance; system = peptide; conditions = concentration not given; scale = higher = stronger binding; quantity = normalised SPR binding response; value = 12 normalised RU
Molecule = VVVGASGVGK; target or system = HLA-A*11:01 peptide-β2M single-chain trimer; assay = western blot, refers to: pMHC-I; system = peptide, 293T cells; conditions = 18 h, unit not given, together with: 100 µg/mL cycloheximide; scale = baseline: time zero; quantity = remaining protein; value = 0.733 and 0.762 and 0.722
Molecule = GSGAGPETLV; target or system = construct, MBP fusion, human SCRIB, PDZ 3-4; assay = automated holdup; system = peptide, purified PDZ protein; conditions = concentration not given, unit not given; scale = baseline: biotin control resin, higher = stronger binding; quantity = binding intensity; value = 0.257
Molecule = colistin; target or system = Acinetobacter baumannii; assay = broth microdilution; system = clinical isolate RKI-No_16/16; quantity = MIC; value = 64 µg/mL
